Measured values gathered from unrelated publications.
Each line is one published result; not all experiments were run side by side. In brackets after ≈: the same amount, converted by molar mass.

Structure (SMILES) | target or system | assay | test system | setting | how to read | measurement | result
Nc1ncc(-c2cc(-c3cnn(CC(F)(F)F)c3)ncc2F)nc1C(=O)NC1CNCC(F)C1 (stereo not drawn) | IKK-epsilon | KINOMEscan competition binding | – | 1 µM | baseline: DMSO control | remaining binding | 100%
C=CC(=O)N1[C@@H](c2ccc3c(c2)OCO3)c2[nH]c3ccccc3c2C[C@H]1C(=O)N1CCN(C)CC1 | human cyclin E1 N112C-3xFLAG:CDK2 | co-IP with TMT proteomics, measured: PRDX1 | – | concentration not given, Q06830 | baseline: wild type DMSO | relative co-enrichment | 105%
c1ccc(-c2n[nH]cc2-c2ccnc3ccccc23)nc1 | BUB1 (Candida albicans) | kinase binding, MIB/MS competition | Candida albicans lysate | 10 µM | baseline: DMSO | log2 fold change | -0.27
C=CC(=O)Nc1cccc(Cn2ncc3cnc(Nc4cnn(CCOC)c4)nc32)c1 | CDC2L5 human | binding, KINOMEscan | – | 100 nM | lower = stronger binding | percent of control | 79%
CNS(=O)(=O)Nc1nccc(Cc2c(C)c3ccc(Oc4ncccc4F)cc3oc2=O)c1F | F-36P | cell viability | – | 7 days | – | IC50 | 53.8 nM
C=C(NC(=O)c1csc(-c2nc3c(cc2O)-c2nc(cs2)C(=O)NC(C(C)O)C(=O)NC(=C(C)OC)c2nc(cs2)C(=O)NC2c4nc(cs4)C(=O)NC(COC(=O)c4c5c6c(cccc6n4O)COC(=O)C(OC4CC(C)(O)C(N(C)C)C(C)O4)C2OC5)c2nc-3cs2)n1)C(N)=O (stereo not drawn) | Streptococcus pneumoniae | broth microdilution | penicillin-resistant isolates | – | – | MIC90 | 0.0156 µg/mL (≈ 0.0109 µM)
COC1CN([C@H]2CC[C@H]([C@@]3(C)Oc4c(Cl)cc(C(=O)NCc5c(SC)cc(C)[nH]c5=O)c(C)c4O3)CC2)C1 | – | RNA-seq, measured: PHLDA3 mouse homolog | mouse, HT-1376 xenograft, whole blood | dose not given | baseline: vehicle | log2 fold change | 1.28
Cc1ncsc1-c1ccc(C(C)NC(=O)C2CC(O)CN2C(=O)C(NC(=O)CCCCCCCCCCN2CCCC(Nc3ncc(Cl)c(Nc4ccccc4S(=O)(=O)C(C)C)n3)C2)C(C)(C)C)cc1 (stereo not drawn) | 22Rv1 | RNA-seq, measured: ZNF653 mRNA | – | concentration not given | baseline: DMSO | log2 fold change | -1.27
CN1CCCNC(=O)c2cccc(c2)C(=O)NCCCN(C)CCCNc2cccc3c2C(=O)c2cccc(c2C3=O)NCCC1 | SAS | RNA-Seq, measured: TTC32 mRNA | – | 1 µM, 6 h | baseline: untreated cells | log2 fold change | 1.31

Excerpt of the above:
Structure (SMILES) | target or system | assay | test system | setting | how to read | measurement | result
Nc1ncc(-c2cc(-c3cnn(CC(F)(F)F)c3)ncc2F)nc1C(=O)NC1CNCC(F)C1 (stereo not drawn) | IKK-epsilon | KINOMEscan competition binding | – | 1 µM | baseline: DMSO control | remaining binding | 100%
